Measurements of several laboratories.
Each line is one published result; not all experiments were run side by side. Numbers after ± are the reported error.
B1: human Nup88; sequence looked up; chain AAAEGPVGDGELWQTWLPNHVVFLRLREGLKNQSPTEAEKPASSSLPSSPPPQLLTRNVVFGLGGELFLWDGEDSSFLVVRLRGPSGGGEEPALSQYQRLLCINPPLFEIYQVLLSPTQHHVALIGIKGLMVLELPKRWGKNSEFEGGKSTVNCSTTPVAERFFTSSTSLTLKHAAWYPSEILDPHVVLLTSDNVIRIYSLREPQTPTNVIILSEAEEESLVLNKGRAYTASLGETAVAFDFGPLAAVPKTLFGQNGKDEVVAYPLYILYENGETFLTYISLLHSPGNIGKLLGPLPMHPAAEDNYGYDACAVLCLPCVPNILVIATESGMLYHCVVLEGEEEDDHTSEKSWDSRIDLIPSLYVFECVELELALKLASGEDDPFDSDFSCPVKLHRDPKCPSRYHCTHEAGVHSVGLTWIHKLHKFLGSDEEDKDSLQELSTEQKCFVEHILCTKPLPCRQPAPIRGFWIVPDILGPTMICITSTYECLIWPLLSTVHPASPPLLCTREDVEVAESPLRVLAETPDSFEKHIRSILQRSVANPAFLKASEKDIAPPPEECLQLLSRATQVFREQYILKQDLAKEEIQRRVKLLCDQKKKQLEDLSYCREERKSLREMAERLADKYEEAKEKQEDIMNRMKKLLHSFHSELPVLSDSERDMKKELQLIPDQLRHLGNAIKQVTMKKDYQQQKMEKVLSLPKPTIILSAYQRKCIQSILKEEGEHIREMVKQINDIRNHVNF
B2: sequence looked up; chain SGPRTLVLLDNLNVRETHSLFFRSLKDRGFELTFKTADDPSLSLIKYGEFLYDNLIIFSPSVEDFGGNINVETISAFIDGGGSVLVAASSDIGDPLRELGSECGIEFDEEKTAVIDHHNYDISDLGQHTLIVADTENLLKAPTIVGKSSLNPILFRGVGMVADPDNPLVLDILTGSSTSYSFFPDKPITQYPHAVGKNTLLIAGLQARNNARVIFSGSLDFFSDSFFNSAVQKAAPGSQRYSQTGNYELAVALSRWVFKEEGVLRVGPVSHHRVGETAPPNAYTVTDLVEYSIVIQQLSNGKWVPFDGDDIQLEFVRIDPFVRTFLKKKGGKYSVQFKLPDVYGVFQFKVDYNRLGYTHLYSSTQVSVRPLQHTQYERFIPSAYPYYASAFSMMLGLFIFSIVFLHMKEKEKSD
B3: sequence looked up; chain AARVLIIGSGGREHTLAWKLAQSHHVKQVLVAPGNAGTACSEKISNTAISISDHTALAQFCKEKKIEFVVVGPEAPLAAGIVGNLRSAGVQCFGPTAEAAQLESSKRFAKEFMDRHGIPTAQWKAFTKPEEACSFILSADFPALVVKASGLAAGKGVIVAKSKEEACKAVQEIMQEKAFGAAGETIVIEELLDGEEVSCLCFTDGKTVAPMPPAQDHKRLLEGDGGPNTGGMGAYCPAPQVSNDLLLKIKDTVLQRTVDGMQQEGTPYTGILYAGIMLTKNGPKVLEFNCRFGDPECQVILPLLKSDLYEVIQSTLDGLLCTSLPVWLENHTALTVVMASKGYPGDYTKGVEITGFPEAQALGLEVFHAGTALKNGKVVTHGGRVLAVTAIRENLISALEEAKKGLAAIKFEGAIYRKDVGFRAIAFLQQPRSLTYKESGVDIAAGNMLVKKIQPLAKATSRSGCKVDLGGFAGLFDLKAAGFKDPLLASGTDGVGTKLKIAQLCNKHDTIGQDLVAMCVNDILAQGAEPLFFLDYFSCGKLDLSVTEAVVAGIAKACGKAGCALLGGETAEMPDMYPPGEYDLAGFAVGAMERDQKLPHLERITEGDVVVGIASSGLHSNGFSLVRKIVAKSSLQYSSPAPDGCGDQTLGDLLLTPTRIYSHSLLPVLRSGHVKAFAHITGGGLLENIPRVLPEKLGVDLDAQTWRIPRVFSWLQQEGHLSEEEMARTFNCGVGAVLVVSKEQTEQILRDIQQHKEEAWVIGSVVARAEGSPRVKVKNLIESMQINGSVLKNGSLTNHFSFEKKKARVAVLISGTGSNLQALIDSTREPNSSAQIDIVISNKAAVAGLDKAERAGIPTRVINHKLYKNRVEFDSAIDLVLEEFSIDIVCLAGFMRILSGPFVQKWNGKMLNIHPSLLPSFKGSNAHEQALETGVTVTGCTVHFVAEDVDAGQIILQEAVPVKRGDTVATLSERVKLAEHKIFPAALQLVASGTVQLGENGKICWVKEE
B4: human calmodulin-like protein 5; sequence looked up; chain AGELTPEEEAQYKKAFSAVDTDGNGTINAQELGAALKATGKNLSEAQLRKLISEVDSDGDGEISFQEFLTAAKKARAGLEDLQVAFRAFDQDGDGHITVDELRRAMAGLGQPLPQEELDAMIREADVDQDGRVNYEEFARMLAQE
B5: peroxiredoxin-6 (human); sequence looked up; chain PGGLLLGDVAPNFEANTTVGRIRFHDFLGDSWGILFSHPRDFTPVCTTELGRAAKLAPEFAKRNVKLIALSIDSVEDHLAWSKDINAYNCEEPTEKLPFPIIDDRNRELAILLGMLDPAEKDEKGMPVTARVVFVFGPDKKLKLSILYPATTGRNFDEILRVVISLQLTAEKRVATPVDWKDGDSVMVLPTIPEEEAKKLFPKGVFTKELPSGKKYLRYTPQP

Molecule = ELDPIYLSY; tested on = Jurkat expressing engineered TCR; test = NFAT-eGFP reporter, fluorescence microscopy; test system = peptide; setting = concentration not given, HLA-A*01:01 on EL4 cells; measurement = GFP-positive cells; result = 1.95%
Molecule = B1 (human Nup88); tested on = U2OS; test = phosphoproteomics; setting = concentration not given, with: cisplatin; scale = baseline: untreated U2OS; measurement = phosphorylation log2 fold change; result = -3.93
Molecule = Polymyxin B; test = untargeted LC-MS metabolomics, item: acetyl-CoA; test system = Sprague-Dawley rat, right cerebral cortex; setting = intracerebroventricular, 0.75 mg/kg, 1 h; scale = baseline: NaCl control; measurement = log2 fold change; result = -3.8
Molecule = human ME2 M75L; test = enzyme activity, NADH absorbance; setting = without fumarate, with: L-malate varied; measurement = Hill coefficient; result = 1.68 ± 0.1
Molecule = GTDPIPRTM; tested on = Jurkat expressing engineered TCR; test = NFAT-eGFP reporter, fluorescence microscopy; test system = peptide; setting = concentration not given, HLA-A*01:01 on EL4 cells; measurement = GFP-positive cells; result = 0.424%
Molecule = MTVCNASQRQAHAQATAVSL; tested on = HCC15 lung squamous carcinoma; test = phage binding output/input; test system = peptide; scale = baseline: control phage; measurement = selectivity ratio; result = 14 ± 4.2
Molecule = B2; tested on = CYB5R4 knockout human cells; test = PP6 interaction, 3xFLAG-PP6C IP-MS; setting = concentration not given; scale = baseline: CYB5R4 KO over parental; measurement = log2 fold change; result = -0.93
Molecule = PFVYLIRFHRFHRFHGGGSSSQLSRP; tested on = HEK293T; test = mRNA delivery, item: mCherry; test system = peptide; setting = concentration not given; measurement = transfection efficiency; result = ~90%
Molecule = Teicoplanin; test system = QC solution; setting = 6 months, -40 °C, low QC level; measurement = recovery; result = 93.8%
Molecule = EVDPVGLLF; tested on = Jurkat expressing engineered TCR; test = NFAT-eGFP reporter, fluorescence microscopy; test system = peptide; setting = concentration not given, HLA-A*01:01 on EL4 cells; measurement = GFP-positive cells; result = 0.956%
Molecule = Ac-LRKLRKRLLRDWLKAFYDKVAEKLKEAF-NH2 (N-acetyl, C-amide); tested on = HUVEC; test = inhibitor, Western blot; test system = peptide; setting = concentration not given, 6 h, with: LPS 1 µg/mL; measurement = VCAM-1 expression; result = inhibited
Molecule = colistin; tested on = Escherichia coli; test = broth microdilution; test system = clinical isolate RKI-No_97/15; measurement = MIC; result = ≤ 0.5 µg/mL
Molecule = epoetin alfa; tested on = UT7/EPO; test = microarray, item: RAB11FIP1 (probe 219681_s_at); setting = 5 U/mL, 90 min, with: SCF 10 nM; scale = baseline: vehicle; measurement = mRNA level; result = 4.3 fold
Molecule = B3; tested on = CYB5R4 knockout human cells; test = PP4 interaction, 3xFLAG-PP4C IP-MS; setting = concentration not given; scale = baseline: CYB5R4 KO over parental; measurement = log2 fold change; result = -1.23
Molecule = insulin; test = LC-MS/MS; test system = pooled human serum, low level; setting = 24 h, 4 °C, stability before sample preparation; scale = baseline: untreated control; measurement = bias; result = -6.4%
Molecule = human ME2 F68V; test = enzyme activity, NADH absorbance; setting = without fumarate, with: L-malate varied; measurement = Hill coefficient; result = 1.59 ± 0.07
Molecule = ELDYIGHYY; tested on = Jurkat expressing engineered TCR; test = NFAT-eGFP reporter, fluorescence microscopy; test system = peptide; setting = concentration not given, HLA-A*01:01 on EL4 cells; measurement = GFP-positive cells; result = 0.609%
Molecule = B4; tested on = CYB5R4 knockout human cells; test = PP4 interaction, 3xFLAG-PP4C IP-MS; setting = concentration not given; scale = baseline: CYB5R4 KO over parental; measurement = log2 fold change; result = 2.49
Molecule = QIDIIRLGY; tested on = Jurkat expressing engineered TCR; test = NFAT-eGFP reporter, fluorescence microscopy; test system = peptide; setting = concentration not given, HLA-A*01:01 on EL4 cells; measurement = GFP-positive cells; result = 0.464%
Molecule = Peginesatide; tested on = UT7/EPO; test = tyrosine phosphorylation, LC-MS/MS phosphoproteomics, trypsin, item: VAV1 tyrosine 603; setting = 10 nM, 15 min, with: 10 U/mL EPO; scale = baseline: vehicle; measurement = phosphorylation level; result = 6.6 fold
Molecule = catalase; tested on = LS174T; test = western blot, item: cyclin A, D1 and E; setting = concentration not given, 48 h; measurement = protein level; result = decreased
Molecule = B5 (peroxiredoxin-6); tested on = CYB5R4 knockout human cells; test = PP6 interaction, 3xFLAG-PP6C IP-MS; setting = concentration not given; scale = baseline: CYB5R4 KO over parental; measurement = log2 fold change; result = -0.42
Molecule = Neuropeptide Y; test = RP-HPLC; test system = HALO Phenyl-hexyl column; setting = 25 µM, acetic acid/methanol, 10 min gradient; measurement = retention time; result = 8.86 min

A few entries again:
Molecule = catalase; tested on = LS174T; test = western blot, item: cyclin A, D1 and E; setting = concentration not given, 48 h; measurement = protein level; result = decreased
Molecule = human ME2 M75L; test = enzyme activity, NADH absorbance; setting = without fumarate, with: L-malate varied; measurement = Hill coefficient; result = 1.68 ± 0.1
